# Assay results of several laboratories.
# Lines come from different studies, so protocols differ. ± marks the error that the study gave.
SMILES,assay,test system,conditions,endpoint,value
[11CH3]c1ccc2nc(C3CCC3)n(-c3ccc4[nH]ncc4c3)c2n1,,"standard human adult, lungs",,absorbed radiation dose,4.1 µSv/MBq
Cc1ccc(OCC(=O)N(Cc2cccs2)c2ccn[nH]2)cc1,,"male beagle dog, plasma","oral, 30 mg/kg, single dose",AUC(0-t),223 ng·h/mL
CCCCCCCCCCCCCCCCCC(=O)Nc1ccn(C2OC(CO)C(O)C2(F)F)c(=O)n1 (stereo not drawn),dialysis,PBS,"pH 7.4, 37 °C, Tween 80/ethanol",release rate constant,0.328 h⁻¹
O=C([O][Ti+2][O]C(=O)c1ccc(P(c2ccccc2)c2ccccc2)cc1)c1ccc(P(c2ccccc2)c2ccccc2)cc1.[Cl][Au].[Cl][Au].c1cc[cH-]c1.c1cc[cH-]c1,"ICP-MS, measured: gold","NOD.CB17-Prkdc scid/J mice, blood","7.5 mg/kg every 48 h, 6 h after last dose",blood concentration,24100 ± 2600 ng/mL
C#CCOc1ccc(/C=C2\SC(=O)N(CC(=O)NCc3ccccc3)C2=O)cc1,inverse Kirkwood-Buff integrals,binary solvent mixture,"298.15 K, mole fraction x1 0.70","Kirkwood-Buff integral G2,3",-367 cm³/mol
Cc1ccc(C(C)C)cc1.O=C(N=P(c1ccccc1)(c1ccccc1)c1ccccc1)c1ccccn1.[Cl-].[Cl-].[Ru+2],"ICP-MS, measured: ruthenium","NOD.CB17-Prkdc scid/J mouse, plasma","intraperitoneal, 5 mg/kg, after first dose",apparent volume of distribution,33.6 mL
NCCCC[C@H](NC(=O)[C@@H]1CCCN1C(=O)[C@@H]1CSSC[C@H](NC(=O)CNC(=O)CNC(=O)CN)C(=O)N[C@@H](Cc2ccc(O)cc2)C(=O)N[C@@H](Cc2ccccc2)C(=O)N[C@@H](CCC(N)=O)C(=O)N[C@@H](CC(N)=O)C(=O)N1)C(=O)NCC(N)=O,,male Sprague Dawley rats,"iv, dose not given, single dose",NOEL,5 µg/kg
Cc1nc(N(C)C)nc(C)c1O,differential pulse voltammetry,,"pH pKa, 298 K",anodic peak potential,0.17 V vs Ag/AgCl
C1=C(c2cc3c(Nc4ccc5scnc5c4)ncnc3s2)CCSC1,,"BALB/c mouse, plasma","oral, 10 mg/kg, 6 h",concentration,5.21 ng/mL
CC(C)C[C@@H](NC(=O)[C@H](NC(=O)[C@H]1CCCN1)[C@H](C)O)C(=O)N[C@H](Cc1c[nH]cn1)C(=O)N[C@@H](C(=O)N[C@H](Cc1c[nH]cn1)C(=O)N[C@H](CC(N)=O)C(=O)N[C@H](CCCNC(=N)N)C(=O)N[C@H](CCCNC(=N)N)C(=O)N[C@H](CCCNC(=N)N)C(=O)N[C@H](CCCNC(=N)N)C(=O)N[C@H](CCCNC(=N)N)C(N)=O)[C@H](C)O,,"Beagle dog, plasma","oral, 20 mg/kg single dose",fraction of AUC from gamma half-life,22%
CC(C)(O)c1ncc([S@](N)(=O)=NC(=O)Nc2c3c(cc4c2CCC4)CCC3)s1,,"healthy human, fasted","oral, 3 mg single dose, capsule formulation",AUC(0-last)/dose,1040 ng·h/mL/mg
CC1(C)COCN1C(=O)n1nnc2c(F)cc(F)cc21,,mouse liver microsomes,"50 µM, 1 h",compound remaining,8 ± 1%
CC(=O)N[C@H](CCNC(=O)c1cc(NC(=O)c2cc(NC(=O)c3cc(NC(=O)c4nccn4C)cn3C)cn2C)cn1C)C(=O)Nc1cn(C)c(C(=O)Nc2cc(C(=O)Nc3cc(C(=O)Nc4cc(C(=O)NCCCN(C)CCCN[14C](=O)c5cccc([14C](=O)O)c5)n(C)c4)n(C)c3)n(C)c2)n1,,BALB/c male mouse,"intraperitoneal, 15 nmol per animal, 24 h",liver concentration,0.57 mg/kg
C=C(c1ccc(C(=O)O)c(F)c1)c1cc2c(cc1C)C(C)(C)C=CC2(C)C,,"Sprague-Dawley rat, male, plasma","oral, 100 mg/kg, 24 h, sesame oil vehicle",HDL level,61 ± 23.4 mg/dL
NS(=O)(=O)c1ccc(N2N=C(C(F)(F)F)CC2c2ccc(F)cc2F)cc1 (stereo not drawn),,"beagle dog, plasma","oral, 1 mg/kg, single dose",AUC(0-inf),14900 ng·h/mL

# For quick reference, copied from above:
SMILES,assay,test system,conditions,endpoint,value
CC1(C)COCN1C(=O)n1nnc2c(F)cc(F)cc21,,mouse liver microsomes,"50 µM, 1 h",compound remaining,8 ± 1%
C=C(c1ccc(C(=O)O)c(F)c1)c1cc2c(cc1C)C(C)(C)C=CC2(C)C,,"Sprague-Dawley rat, male, plasma","oral, 100 mg/kg, 24 h, sesame oil vehicle",HDL level,61 ± 23.4 mg/dL
